Measurements pooled from the literature.
Every numbered part comes from another study and shows a few of its results, in no order.

Study 1
Target: Histone acetyltransferase KAT6A, both winged helices, GST fusion (KAT6A, Homo sapiens, UniProt Q92794, residues 1-181)
Method: protein binding microarray
Form: double-stranded DNA, one strand shown
Sample: in vitro
Tested at: not given
Notes: 8-mer, flanks averaged, mean of 2 arrays, mostly near background
Relative to: not given
Reading: higher = stronger binding
Residues (chain): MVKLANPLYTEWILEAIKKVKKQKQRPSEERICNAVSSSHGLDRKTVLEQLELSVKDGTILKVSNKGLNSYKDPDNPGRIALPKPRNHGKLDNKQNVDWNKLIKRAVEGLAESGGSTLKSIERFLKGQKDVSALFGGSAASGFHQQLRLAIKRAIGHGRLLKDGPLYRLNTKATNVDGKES
| Strand | E-score |
| --- | --- |
| ACCGGCTG | 0.0914 |
| ACCTCTGA | -0.134 |
| GGCGCGCA | 0.356 |
| AGTGCGTC | 0.0815 |
| GCATGTGA | 0.0116 |
| AAGTGTTG | -0.113 |
| AGATGTCA | -0.024 |
| GAGGCAAC | 0.00352 |
| GCATTTGA | -0.0157 |

Study 2
Target: Protein C-ets-1 (ETS1, Homo sapiens, UniProt P14921, residues 1-441, full length assumed)
Method: protein-binding microarray
Form: double-stranded DNA, one strand shown
Sample: in vitro
Tested at: not given
Notes: k-mer, scored over probes, only values ≥0.25
Reading: higher = stronger binding
Residues (chain): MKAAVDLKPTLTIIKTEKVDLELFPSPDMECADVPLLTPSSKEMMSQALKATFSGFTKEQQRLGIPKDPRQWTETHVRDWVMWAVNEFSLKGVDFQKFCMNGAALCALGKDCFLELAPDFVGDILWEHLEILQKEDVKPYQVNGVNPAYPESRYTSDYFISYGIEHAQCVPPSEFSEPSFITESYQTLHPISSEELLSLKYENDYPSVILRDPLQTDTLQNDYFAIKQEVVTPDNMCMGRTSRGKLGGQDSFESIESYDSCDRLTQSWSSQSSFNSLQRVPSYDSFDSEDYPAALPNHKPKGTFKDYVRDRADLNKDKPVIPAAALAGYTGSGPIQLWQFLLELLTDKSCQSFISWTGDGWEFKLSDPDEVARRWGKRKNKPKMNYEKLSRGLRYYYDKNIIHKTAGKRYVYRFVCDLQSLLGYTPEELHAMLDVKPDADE
| Strand | E-score |
| --- | --- |
| GAGCATCC | 0.377 |
| GAGCAGGA | 0.309 |
| GGCGGACA | 0.332 |
| CTTCCTCC | 0.447 |
| AACCGGAA | 0.486 |
| GAACGGAA | 0.458 |
| TGCAGGAA | 0.397 |

Study 3
Target: Interferon regulatory factor 5, full length, phosphomimetic (IRF5, Homo sapiens, UniProt Q13568-2, residues 1-514, K96S/S451D/S453D/S456D/S462D)
Method: protein-binding microarray
Form: double-stranded DNA, one strand shown
Sample: in vitro
Tested at: 250 nM
Notes: 60-bp whole probe
Added: salmon DNA 0.4 mg/ml
Relative to: random background probes
Reading: higher = stronger binding
Constant ends, left off below: GCCTAGCAC … GTCTTGATTCGCTTGACGCTGCTG
| Strand | log fluorescence [z-score] |
| --- | --- |
| TTAGGTTTCATTTCCCTTTAGTGCTAG | 3.49 |
| GGCGGTCTCGGTATCGGGACGTGCTAG | 0.891 |
| TTAGATCTAAGTATCGATTAGTGCTAG | 5.85 |
| GACGGTATCGACTGTCGGGACGTGCTA | 1.99 |
| ATTCATATATATATGAAAAAGTGCTAG | 1.11 |

Single results of other studies
| Substance | target | assay | system | conditions | scale | measurement | value |
| --- | --- | --- | --- | --- | --- | --- | --- |
| PhoQ, residues 284 288 289 292 302 303 TSTLRA | PhoP, residues 12 14 15 18 19 AQCLL (Escherichia coli, UniProt P23836) | Sort-seq, refers to: YFP reporter | E. coli | PhoQ-PhoP variant library, added: 10 µM Mg2+ | relative to: high Mg2+ state, higher = stronger signaling | fold induction | 0.441 |

For quick reference, copied from above (study 2):
| Strand | E-score |
| --- | --- |
| GAGCAGGA | 0.309 |
| GGCGGACA | 0.332 |
